# Measurements collected from several papers.
# Every numbered part comes from another study and shows a few of its results, in no order.

# Study 1
# Target: RNA binding protein fox-1 homolog 2, RRM domain, GST-SBP tag (RBFOX2, Homo sapiens, UniProt O43251-10, residues 100-194)
# Technique: RNA Bind-n-Seq
# Form: RNA
# Medium: in vitro
# Tested at: 365 nM
# Setting: natural RNA segment, single round, ends assumed
# Baseline: no-protein control
# Direction: higher = stronger binding
# Constant ends, left off below: GGGAGUUCUACAGUCCGACGAUC … UGGAAUUCUCGGGUGCCAA
# Construct (chain): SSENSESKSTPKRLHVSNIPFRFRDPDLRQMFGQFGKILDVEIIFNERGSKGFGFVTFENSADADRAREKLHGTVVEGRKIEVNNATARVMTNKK
Oligonucleotide,RBNS enrichment (R)
AUUUGACUGUGGAAGAAGACACUAAGAGCCAGCAGAAGGGCCUGAGCUGCCUCAUUAGCCUGGCUUCAUUUGGGGAGCUCCUGACAGUGUCCCGAGUAGGUGCCCAGCCC,0.219
AGCAACUUACAGAGGGUAUUUUAGCUCAGUUCAGGUGUGGGGUCCACAGUGCUGAGGAAAUCAUAGUGGCAGAAGGAGGAGGUGACUGGUUACAUCCCGUCCAGUCAGGA,1.04
GAAACCAAGCCCACGGUCUUGGCCGUGACCCUGAUAAUAAAUGGGCUCUCUCAGAGGCGCCAGCCCCUCCCUCCCCAGCCGGAGGCGUCAUCUCUCUUCUGUACCACUAG,0.326
CUGGACUUGUCCAAUUAAUGAAGUUGAUUCAUAUUGCAUCAUAGUUUGCUUUGUUUAAGCAUCACAUUAAAGUUAAACUGUAUUUUAUGUUAUUUAUAGCUGUAGGUUUU,8.65
UGUUAGUUACCACGAUGGUGUUUAAAUCAACACCCUAGCACGCUACCUGUCGGCCUGUUGGUGUCUGGCCUAUGUGAACCCUUGAAUGAUUCUUCUCGUUUGAAAGAUGA,0.249
UUUUUCUUUUCUCAACCAUUACGGUUUAUCUUUUUUUAAUGCAGAUAGUUAAAAUUUCACUGCCAGGUUUCUUCUGCCCACCCAAAAGAUCCAGUCUAUAAUUACAGAUU,1.01
UUGGGAGGCCAAGGUAGGUGGAUACCUGAGGUCAGGAGUUCAAGACCAGCCUGGCCAACAUGGUGAAACCCCGUCUCUACUAAAAAUACAAAAAUUAGCUGGGCGUGGUG,0.278
GUAUCUCAUAAGGUAAACCAAUAGCUGAUUAUGUGGAGCCAAGUUACUUCUUUUCUUUUUGCAUUAUCUUGUUUUGGUUUUGUGCUGUAAUAGAAGUUCACUUAGCUACU,0.369
AAGUGCACUGCAAGGCCAGAAAAUUUUACAAUCUUCUUUCUUUUAUGUUCUGUAGUGUGUUUACCCUCAUUAUGAAGCAAAUUAGCAAUGCAUUGAUUAAUGUUCACUUA,0.209
CAUGAAGGACCCCCAUACAGCCUGUCUCCCACCCCUGACAACCCGAGAGGGCAUAUGGGGCCCUGCCAACACCACUUCCUCAGCAGAAACCCGUCAUGACGCGGCUGCUU,0.435
UCACGAGACAAUGAAAAUGCAGAGACUGAACUUGGGGGUCGUUCUGUGCCUUCCAGCAUCUUGUACAGCAAACCCUGACUUGUCUUUAUACCCCCAAAAUACCGUCUUCA,1.11
AGCAUUUAUUUGGUGGCAGAAUGUUUGCCUAGGUACAGAAUUAAUAGCCCUUAGCAACGACUGCUGCUGGUGUGUAUUUUUGUAAAUGUUAUGCACUCUCUGAAAGGAAA,1.33

# Study 2
# Target: Histone acetyltransferase KAT6A, winged helix 1, GST fusion (KAT6A, Homo sapiens, UniProt Q92794, residues 1-85)
# Technique: protein binding microarray
# Form: double-stranded DNA, one strand shown
# Medium: in vitro
# Tested at: not given
# Setting: 8-mer, flanks averaged, mean of 2 arrays, mostly near background
# Baseline: not given
# Direction: higher = stronger binding
# Construct (chain): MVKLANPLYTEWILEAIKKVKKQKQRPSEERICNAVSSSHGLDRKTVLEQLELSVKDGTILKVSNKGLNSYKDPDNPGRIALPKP
Oligonucleotide,E-score
CCCGCTGA,0.256
CTCGCTCC,-0.0583
GAAATACC,0.0034
ATAATGAG,-0.221
CCGCGAGA,0.281
GAATCGTC,0.00995
CCTCTCCC,-0.127
CACTCTTC,-0.14
GAGCTCCC,-0.0205
AACCCATA,-0.188
AGTTCGGA,-0.00972
TCAGGACA,-0.273
CATATTAA,-0.0198
GAAGGAAC,0.066
ACTGCAGG,-0.179
GCCTCTAA,-0.0577
AGATATTG,-0.24
CAACGCCC,0.158
CGTCGTTC,0.226
AAAGTCCT,-0.111
ATCCGATG,0.0608
CAGCGCTG,0.383

# Study 3
# Target: RING finger protein unkempt homolog, zinc fingers 1-6, GST-SBP tag (UNK, Homo sapiens, UniProt Q9C0B0, residues 30-357)
# Technique: RNA Bind-n-Seq
# Form: RNA
# Medium: in vitro
# Tested at: not given
# Setting: RNA with constant flanks, human-mouse chimeric sites, ends assumed
# Baseline: input RNA pool
# Direction: higher = stronger binding
# Constant ends, left off below: GGGAGUUCUACAGUCCGACGAUC … CAACAGAGGAUUGAGCAUCA
# Construct (chain): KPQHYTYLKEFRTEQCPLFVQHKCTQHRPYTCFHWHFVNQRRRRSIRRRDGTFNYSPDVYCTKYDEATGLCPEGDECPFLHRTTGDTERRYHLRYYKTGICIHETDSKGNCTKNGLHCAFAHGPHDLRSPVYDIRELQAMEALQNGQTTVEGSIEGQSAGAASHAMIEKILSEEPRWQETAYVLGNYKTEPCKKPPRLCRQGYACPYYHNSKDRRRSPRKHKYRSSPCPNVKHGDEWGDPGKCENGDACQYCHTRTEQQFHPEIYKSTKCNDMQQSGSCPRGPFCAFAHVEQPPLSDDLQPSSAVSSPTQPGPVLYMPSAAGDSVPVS
Oligonucleotide,bound/input enrichment [ratio]
AGAAUCUUGGGACUGUUUUACUUAAUUGGUCAUUGAUAGCUUAACAAACAUGGAGAUAAGAUUAGAAAUCUUGACAUCAACAAGUAUUAAGCAGAAAAAACCCUGGCCACGUGUCUCCUG,0.13
GGACAUCUGUCAAAUUGUUAUGUUCCUGUGAAACAAGUGAACACUCUGAUACACUUCAUCUGCUUGUACAUCUGUAUUUGUAUAAUAUGUAAAUAUGAAUAUAUUUACAAUGUGUCACUU,0.108
GAGUCGAGCAAACUUGAAACAAUUCGUUUUACAAAAACCUCAGUGUUCACUUGCUUGGCGAUAGCAUUGGGGUUUUAUAGGUUCUGGAAGGAGAACUGACGAUGAUGUCCUGCUGUGUGC,0.135
GUGCCCUUCUCGCUGCUGCGGAGCCCGAGCUGGGAACCAUUCCGGGACGACUGGUACGCACACAGCCGCCUCUUCGAUCAAGCUUUCGGGGUGCCCCGGUUGCCCGAGGAGUGGUCGCAG,0.0916
AUCCAGUACUCGAAUCACAAAGAACUAAAGACAGAUAAUACAUUAAACCAACGUGCGCAGGCAGUUCUUCAAGCUGUGACAGCUGUCCAGACAGCAAAUACUCCUCUUAGUGGCACCACA,0.393
CGCUUGGAUGAGGCGGGUGUCACAGAUGAAGUGCUAGAUUCUGCCAUGCAAGCCUUCCUUCUGGAGGUUAUCGUUAAACAUGGGGAGCCAGCCCCUUAUUUAUGUAACAAAGAUCCGUUU,0.185
AGAGCCCAGGACGUUGAUGCUACAAAUCCAAAUUACGAAAUUAUGUGUAUGAUCAGAGACUUCAGAGGAAGUUUGGAUUACAGACCCCUAACAACAGCAGAUCCUAUUGAUGAACAUAGG,0.518
AACUUUGUGCAUCGGUUUCCCUUUGUAGCUGUUUCAAUUGGCUUCCUUGUGAAUAAAGAGAUGGAGUUUGGAAUUGUGUACAGUUGUGUGGAAGAUAAGAUGUACACCGGCAGGAAAGGG,0.403
GUGACUGGUGUUAAGAUUUCCCCUCAGCAAAGAAGUGCAGUAGUCACCAUAAUUCCAUCUGUGGUGAAUGCCAAUCAGAUUGUGGAGCUGGUUCCAGACCUCAGUUUAGACAUGGGAACU,0.203
UUCAAAGAAAAGGGCAGUUCAUAAAUAUCAUAAGUAACUCUGGGGGAUAAGUGGAAGGUUCUUUUGUUUAAUUUUCCCCCAAAUGAAGCCAAAGUGUGUGUUGAAGAACUGAGAAAAAAU,0.22
CCAAUUGUGGAGCAGUACUUGAAGACAAAGAAAAAUUCUAAUAAUUUAAUCAUCAAGUACAUUAGCUGCCGGCUGGUGACACUCAUCGUUAUACUGUUAGCGUGUAUCUACCUGGGCUAU,0.451

# Study 4
# Target: Sal-like protein 4, full length isoform A (SALL4, Homo sapiens, UniProt Q9UJQ4, residues 1-1053)
# UniProt Q9UJQ4, sequence (whole entry, looked up): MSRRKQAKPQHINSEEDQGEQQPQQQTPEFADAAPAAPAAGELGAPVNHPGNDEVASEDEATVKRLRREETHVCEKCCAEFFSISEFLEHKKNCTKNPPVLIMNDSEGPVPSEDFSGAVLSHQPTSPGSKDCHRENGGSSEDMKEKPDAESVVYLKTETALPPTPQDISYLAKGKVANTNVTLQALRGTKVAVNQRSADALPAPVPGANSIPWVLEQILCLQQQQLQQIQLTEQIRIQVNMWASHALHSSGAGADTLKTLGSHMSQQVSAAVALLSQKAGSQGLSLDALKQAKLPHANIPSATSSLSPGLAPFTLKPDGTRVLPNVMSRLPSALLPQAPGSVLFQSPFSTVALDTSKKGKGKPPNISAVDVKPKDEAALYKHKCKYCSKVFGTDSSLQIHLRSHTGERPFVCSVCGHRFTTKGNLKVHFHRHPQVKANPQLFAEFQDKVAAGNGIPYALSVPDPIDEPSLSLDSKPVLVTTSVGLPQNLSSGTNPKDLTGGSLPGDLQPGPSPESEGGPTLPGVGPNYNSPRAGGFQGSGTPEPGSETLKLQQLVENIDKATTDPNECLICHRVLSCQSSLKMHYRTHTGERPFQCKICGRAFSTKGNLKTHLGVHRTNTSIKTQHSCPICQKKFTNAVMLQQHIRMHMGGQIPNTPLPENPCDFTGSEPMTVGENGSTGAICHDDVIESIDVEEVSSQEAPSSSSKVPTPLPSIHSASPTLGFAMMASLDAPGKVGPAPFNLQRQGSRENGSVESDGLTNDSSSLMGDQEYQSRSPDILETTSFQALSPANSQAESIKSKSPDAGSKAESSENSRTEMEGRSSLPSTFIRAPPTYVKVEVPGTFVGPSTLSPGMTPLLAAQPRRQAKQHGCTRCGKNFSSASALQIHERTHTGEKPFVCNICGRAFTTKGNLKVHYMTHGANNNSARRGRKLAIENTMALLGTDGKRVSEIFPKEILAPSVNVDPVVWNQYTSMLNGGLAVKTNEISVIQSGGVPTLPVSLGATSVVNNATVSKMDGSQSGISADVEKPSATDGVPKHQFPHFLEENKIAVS
# Technique: universal PBM
# Form: double-stranded DNA, one strand shown
# Medium: in vitro
# Tested at: 600 nM
# Setting: 8-mer, flanks averaged, mean of replicates
# Direction: higher = stronger binding
Oligonucleotide,E-score
ACTCGTGA,0.00131
GATAGACC,-0.0285
AACAGCGT,0.0492
AGAAGTAC,0.0674
ACCAGCCT,-0.189
ATAGATTC,0.237
CGTCCTTC,0.0592
GACATACC,-0.0587
ACAGTGGA,-0.0145
AAGTCTAA,0.181
CTGAACTC,-0.106
CCTAGCTC,-0.192
AGAGAAAT,0.149
CTTGCGAA,0.136
CACATACC,0.0903
TAGTCGCA,0.00211
AATTCTGG,0.0601
GCACAGAA,-0.0194
AGATGCGC,-0.077
GCTTTGCA,-0.201
AGATCATA,0.202
GCGAGTAA,0.0689
CAGCAACG,0.00191
GGTTTTAC,0.0062
AACCTAGT,0.0063

# Study 5
# Target: Ras GTPase-activating protein-binding protein 1, full length (G3BP1, Homo sapiens, UniProt Q13283)
# UniProt Q13283, sequence (whole entry, looked up): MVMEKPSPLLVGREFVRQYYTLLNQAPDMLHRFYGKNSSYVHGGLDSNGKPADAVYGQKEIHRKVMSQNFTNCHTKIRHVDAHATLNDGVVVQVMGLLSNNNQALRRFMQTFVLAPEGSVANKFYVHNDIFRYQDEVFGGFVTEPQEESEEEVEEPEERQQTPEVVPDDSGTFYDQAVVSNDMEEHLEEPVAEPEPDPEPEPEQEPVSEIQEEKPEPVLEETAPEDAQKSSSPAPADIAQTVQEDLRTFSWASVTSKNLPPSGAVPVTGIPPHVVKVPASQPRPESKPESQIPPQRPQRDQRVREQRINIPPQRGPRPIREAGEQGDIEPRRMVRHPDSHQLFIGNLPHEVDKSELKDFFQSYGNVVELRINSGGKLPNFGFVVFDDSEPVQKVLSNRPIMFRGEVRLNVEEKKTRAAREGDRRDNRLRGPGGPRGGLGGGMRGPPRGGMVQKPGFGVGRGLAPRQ
# Technique: RNA Bind-n-Seq
# Form: RNA
# Medium: in vitro
# Tested at: 200 nM
# Setting: whole 134-nt RNA, ends assumed
# Added: 150 mM LiCl
# Baseline: input library
# Direction: higher = stronger binding
# All molecules: 7-deaza-guanosine replaces G
# Constant ends, left off below: GGGAGUUCUACAGUCCGACGAUC … UGGAAUUCUCGGGUGUCAAGG
Oligonucleotide,log2 enrichment
UAACUUUAGAGGAGGAUCUGAUGGAUAUGGCAGUGGAUGUGGAUUUGGGGAUGGCUAUAAUGGGUAUGGAGGAGGACCUGGAGGUGGCAA,0.354
CUGAAGAGUCUGAGGAUGCCCAAUCACAGAGCCAAGCAGAUGAAGAGGAGGAAGAUGAUGAUUUUGGGGUGGAGUACUUGCUUGCCAGGG,-1.06
UCCUGUGCUACACAUCGUAUGUACCGAAUCGGGAAAAAAGGAAAAAAGGGAAAAAAGGGGAAAGUAUUAUGUUACGCCGUUCGGAUCUGC,-0.441
CACAGACAACACGCACCCACACAGACACAGAGGGAAGGGGUUGGGAUGGGGACAGGUUGCACAGCAGGGCGGGGUAGGACCCCAGCCCCU,-0.374
AGUCCUGUGCUACACAUCGUAUGUACCGAAUCGGGGAAAAAAAGGGGUGGGGAGGGGAAAGUAUUAUGUUACGCCGUUCGGAUCUGCACU,0.126
CUCAAGUCCUGUGCUACACAUCGUAUGUACCGAAUCGGUUUUUGGAAAGGAGGAAAGUAUUAUGUUACGCCGUUCGGAUCUGCACUUCCA,-0.397
CUCAAGUCCUGUGCUACACAUCGUAUGUACCGAAUCGGAAGGGAAGGAAGGGGAAAGUAUUAUGUUACGCCGUUCGGAUCUGCACUUCCA,0.00334
UCCUGUGCUACACAUCGUAUGUACCGAAUCGGGGUUUUUUUGGGGUUUUUGGGGAGGGGAAAGUAUUAUGUUACGCCGUUCGGAUCUGCA,0.769
CCUGUGCUACACAUCGUAUGUACCGAAUCGGAAAAAAAGGGGAAAAAAAGGGAAAAAAAGGAAAGUAUUAUGUUACGCCGUUCGGAUCUG,0.0545
AGUCCUGUGCUACACAUCGUAUGUACCGAAUCGGAAAAAGGUUUUUUUGGUUUUUGGAAAGUAUUAUGUUACGCCGUUCGGAUCUGCACU,-3.24
UCAAGUCCUGUGCUACACAUCGUAUGUACCGAAUCGGAAAAAAAGGAGGUUUGGAAAGUAUUAUGUUACGCCGUUCGGAUCUGCACUUCC,-1.13

# Repeated from above (study 4):
Oligonucleotide,E-score
AGAAGTAC,0.0674
GACATACC,-0.0587
AGAGAAAT,0.149
AAGTCTAA,0.181
GCGAGTAA,0.0689
GCTTTGCA,-0.201
